{"data": "Assay results gathered from unrelated publications", "note": "A part holds a random share of what one study measured. Substitutions count along the parent as printed.", "UniProt Q8NG66, sequence (whole entry, looked up)": "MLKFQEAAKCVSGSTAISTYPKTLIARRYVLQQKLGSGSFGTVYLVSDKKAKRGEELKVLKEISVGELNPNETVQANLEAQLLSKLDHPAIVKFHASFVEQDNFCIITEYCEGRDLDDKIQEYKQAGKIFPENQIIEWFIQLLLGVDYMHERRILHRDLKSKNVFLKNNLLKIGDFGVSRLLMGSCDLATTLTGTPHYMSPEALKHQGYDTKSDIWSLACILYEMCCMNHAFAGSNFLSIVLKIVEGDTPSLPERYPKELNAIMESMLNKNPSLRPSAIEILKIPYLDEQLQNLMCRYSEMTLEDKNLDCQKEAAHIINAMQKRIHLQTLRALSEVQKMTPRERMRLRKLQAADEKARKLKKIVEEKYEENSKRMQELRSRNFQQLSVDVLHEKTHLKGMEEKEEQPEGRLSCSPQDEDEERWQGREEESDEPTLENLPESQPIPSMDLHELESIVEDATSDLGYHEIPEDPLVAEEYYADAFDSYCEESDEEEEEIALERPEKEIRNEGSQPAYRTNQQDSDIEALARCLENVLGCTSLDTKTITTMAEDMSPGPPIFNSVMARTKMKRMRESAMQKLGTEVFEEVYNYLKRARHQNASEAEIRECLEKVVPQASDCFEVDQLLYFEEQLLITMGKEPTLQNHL"}
{"data": "Set 1", "target": "Prothrombin, mature alpha-thrombin (F2, Homo sapiens, UniProt P00734)", "technique": "aptamer microarray, sandwich", "molecule type": "DNA with 2'F-ANA", "medium": "in vitro", "concentration": "200 nM", "notes": "whole 15-mer aptamer, many near background", "added": "Cy3 exosite-II aptamer, 400 nM", "reading": "higher = stronger binding", "strand": "GGTTGGTGTGGTTGG"}
{"Modification": "2'F-ANA at 1 4 5 8 11 12 13 14 15", "mean fluorescence intensity [a.u.]": 51}
{"Modification": "2'F-ANA at 2 4 8 14 15", "mean fluorescence intensity [a.u.]": 140}
{"Modification": "2'F-ANA at 3 4 7 8 11 12 14", "mean fluorescence intensity [a.u.]": 399}
{"Modification": "2'F-ANA at 3 5 8 9 12 13 14", "mean fluorescence intensity [a.u.]": 151}
{"Modification": "2'F-ANA at 3 4 5 6 7 11 14", "mean fluorescence intensity [a.u.]": 52.8}
{"Modification": "2'F-ANA at 2 3 4 5 6 11 12 13 14", "mean fluorescence intensity [a.u.]": 53.3}
{"Modification": "2'F-ANA at 5 13 15", "mean fluorescence intensity [a.u.]": 58}
{"Modification": "2'F-ANA at 1 2 4 5 8 10 12 14", "mean fluorescence intensity [a.u.]": 45.4}
{"data": "Set 2", "target": "CREBZF, bZIP domain (human)", "technique": "DHFR protein complementation", "medium": "yeast", "notes": "single substitutions, most at no-binding floor", "baseline": "wild-type JUN-FOS pair", "reading": "higher = stronger binding", "starting sequence": "JUN, bZIP domain (human); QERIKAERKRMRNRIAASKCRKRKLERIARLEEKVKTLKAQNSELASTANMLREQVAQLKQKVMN; partner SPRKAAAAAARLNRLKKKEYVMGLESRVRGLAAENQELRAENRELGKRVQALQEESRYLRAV"}
{"Change": "N42I", "binding fitness [natural log]": -1.5}
{"Change": "R30Q", "binding fitness [natural log]": -1.48}
{"Change": "S43C", "binding fitness [natural log]": -1.46}
{"Change": "L38E", "binding fitness [natural log]": -1.53}
{"Change": "E44V", "binding fitness [natural log]": -1.42}
{"Change": "T48C", "binding fitness [natural log]": -1.58}
{"Change": "I28W", "binding fitness [natural log]": -1.5}
{"Change": "S47G", "binding fitness [natural log]": -1.36}
{"data": "Set 3", "target": "Centromere-binding protein 1, full length, His-tagged (CBF1, Saccharomyces cerevisiae, UniProt P17106, residues 1-351)", "technique": "competition protein-binding microarray", "molecule type": "double-stranded DNA, one strand shown", "medium": "in vitro", "concentration": "2 µM", "notes": "whole 60-bp probe, lowest competitor level", "added": "Pho4 competitor, 0.05 µM", "reading": "higher = stronger binding", "shared flanks, not repeated": "… GTCTTGATTCGCTTGACGCTGCTG", "UniProt P17106, sequence (whole entry, looked up)": "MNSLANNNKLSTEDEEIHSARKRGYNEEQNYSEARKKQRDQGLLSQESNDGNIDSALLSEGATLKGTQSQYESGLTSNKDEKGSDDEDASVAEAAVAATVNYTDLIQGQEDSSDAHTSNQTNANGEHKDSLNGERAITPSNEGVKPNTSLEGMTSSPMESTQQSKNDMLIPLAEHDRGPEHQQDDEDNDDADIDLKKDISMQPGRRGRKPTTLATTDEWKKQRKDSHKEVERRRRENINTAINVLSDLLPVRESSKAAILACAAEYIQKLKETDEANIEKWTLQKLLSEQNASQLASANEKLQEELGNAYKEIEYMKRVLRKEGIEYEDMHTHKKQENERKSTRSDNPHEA"}
{"Strand": "GTTCTGGTGGTGGTTACCGTGCCAGGTTGTCTGGTG", "fluorescence intensity": "62.4 a.u."}
{"Strand": "TGTAAGTTGCAATCGCACGTGTGTTGTAGCCATGTA", "fluorescence intensity": "768 a.u."}
{"Strand": "TGCGCAACAACTTGGTTGGTGGGTGTATGTCTAGAA", "fluorescence intensity": "59.2 a.u."}
{"Strand": "ATTATGGTAGAGACCCTCGTGAATACTGCATCTTGT", "fluorescence intensity": "90.1 a.u."}
{"Strand": "TGCGCAACAACTTGACGTGTGGGTGTATGTCTAGAA", "fluorescence intensity": "73.8 a.u."}
{"Strand": "TTGAGATACCTCAGTGATGTGGCACAGCGTAAGGAG", "fluorescence intensity": "75.8 a.u."}
{"Strand": "GTCTTGTCTCATTGTCACGTGACTTTCCCCACTTCA", "fluorescence intensity": "21500 a.u."}
{"Strand": "GGAAGGTACACAAGTCACATGGCAACTGGCTAGGAT", "fluorescence intensity": "977 a.u."}
{"data": "Single results of other studies"}
{"SMILES": "COc1cc2ncnc(Nc3cccc(Cl)c3)c2cc1OC", "target": "Serine/threonine-protein kinase Nek11 (NEK11, Homo sapiens, UniProt Q8NG66)", "test": "enzyme activity, inhibitor", "conditions": "0.5 µM", "scale": "baseline: control", "endpoint": "remaining activity", "result": "96.9%"}
{"note": "Repeated from above (set 2):"}
{"Change": "E44V", "binding fitness [natural log]": -1.42}
{"Change": "I28W", "binding fitness [natural log]": -1.5}
{"Change": "N42I", "binding fitness [natural log]": -1.5}
{"Change": "R30Q", "binding fitness [natural log]": -1.48}
